Assay results collected from several papers.
Numbered parts are unrelated; each lists some results of a single study. Positions count from the first letter of the parent shown.
Sequence of UniProt Q05940 (whole entry, looked up): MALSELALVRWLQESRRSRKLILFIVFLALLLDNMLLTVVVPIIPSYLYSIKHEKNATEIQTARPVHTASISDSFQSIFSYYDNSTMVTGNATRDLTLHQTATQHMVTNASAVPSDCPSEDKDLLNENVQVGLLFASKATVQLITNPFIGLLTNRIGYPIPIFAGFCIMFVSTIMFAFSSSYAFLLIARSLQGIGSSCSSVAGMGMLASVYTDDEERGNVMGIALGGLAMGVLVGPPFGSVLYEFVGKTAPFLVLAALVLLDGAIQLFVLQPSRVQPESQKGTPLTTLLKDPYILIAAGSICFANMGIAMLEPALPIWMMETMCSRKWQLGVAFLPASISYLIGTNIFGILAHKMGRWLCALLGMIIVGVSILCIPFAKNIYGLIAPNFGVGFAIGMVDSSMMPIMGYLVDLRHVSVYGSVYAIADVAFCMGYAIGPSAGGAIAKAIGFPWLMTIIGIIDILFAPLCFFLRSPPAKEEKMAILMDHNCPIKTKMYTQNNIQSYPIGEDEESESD

Series 1 — target: JDP2, bZIP domain (human); technique: DHFR protein complementation; matrix: yeast; reference: wild-type JUN-FOS pair; direction: higher = stronger binding; measurement: binding fitness
Setting: single substitutions, most at no-binding floor
Starting sequence: JUN, bZIP domain (human); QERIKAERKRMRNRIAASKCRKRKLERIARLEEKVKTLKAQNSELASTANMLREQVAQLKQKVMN; partner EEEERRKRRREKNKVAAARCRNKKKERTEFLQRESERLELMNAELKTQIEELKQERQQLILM
S43C: 0.246 natural log
R30S: 0.329 natural log
V35P: -0.909 natural log
L38H: -0.081 natural log
L31W: 0.307 natural log
E33Q: 0.0926 natural log
A40N: 0.327 natural log
L31S: 0.112 natural log

Series 2 — technique: competition protein-binding microarray; form: double-stranded DNA, one strand shown; matrix: in vitro; tested at: 2 µM; added: Pho4 competitor, 0.05 µM; direction: higher = stronger binding; measurement: fluorescence intensity; constant ends, left off below: … GTCTTGATTCGCTTGACGCTGCTG
Target: Centromere-binding protein 1, full length, His-tagged (CBF1, Saccharomyces cerevisiae, UniProt P17106, residues 1-351)
Sequence of UniProt P17106 (whole entry, looked up): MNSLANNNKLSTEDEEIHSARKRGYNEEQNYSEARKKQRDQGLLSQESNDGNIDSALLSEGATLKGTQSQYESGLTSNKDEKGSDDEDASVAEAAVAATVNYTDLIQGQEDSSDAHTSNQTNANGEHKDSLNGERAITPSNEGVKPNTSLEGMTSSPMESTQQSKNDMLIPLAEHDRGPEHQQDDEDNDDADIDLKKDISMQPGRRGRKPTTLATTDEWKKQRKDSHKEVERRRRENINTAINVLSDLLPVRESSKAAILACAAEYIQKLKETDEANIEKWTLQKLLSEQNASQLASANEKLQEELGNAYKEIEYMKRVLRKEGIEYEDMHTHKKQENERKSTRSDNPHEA
Setting: whole 60-bp probe, lowest competitor level
CTATCGGCCGCCACTGTCGTGTCTGAGTAGACGGGA: 67 a.u.
AAGTAGGAGTATAAGAGCGTGGGTAAACACAAAATG: 68.7 a.u.
GCTTGTATGCTATACCATGTGATATGTAATAGTACA: 1240 a.u.
CGTCCTAGTGATTGTCACCCTACTTCCATGAGGAAG: 74.9 a.u.
CAATCTTTGTCTAGCTTCGTGCTTTTTGGCAAAAGC: 79.5 a.u.
TGCGCAACAACTTGCGCGGTGGGTGTATGTCTAGAA: 67.4 a.u.
GCTGTGTGAGCGGCCCTCGTGGCTCGGGAGGTGCTG: 81.9 a.u.
TCGGAGAAAGCATCTCACGGGGAACAATTGGTTAGA: 89 a.u.

Series 3 — technique: protein binding microarray; form: double-stranded DNA, one strand shown; matrix: in vitro; tested at: not given; reference: not given; direction: higher = stronger binding; measurement: E-score
Target: Histone acetyltransferase KAT6A, both winged helices, GST fusion (KAT6A, Homo sapiens, UniProt Q92794, residues 1-181)
Setting: 8-mer, flanks averaged, mean of 2 arrays, mostly near background
Residues (chain): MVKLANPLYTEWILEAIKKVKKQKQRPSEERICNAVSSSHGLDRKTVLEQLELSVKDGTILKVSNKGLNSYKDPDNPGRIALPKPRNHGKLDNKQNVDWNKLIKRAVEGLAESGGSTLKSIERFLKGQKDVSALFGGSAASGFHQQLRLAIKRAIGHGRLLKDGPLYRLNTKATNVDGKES
AGTGACGA: -0.0751
ATGCGCTC: 0.166
GTTCTCCA: -0.161
ACATGAGC: 0.122
TGGACGAA: 0.0832
ACCAGAGG: -0.239
GAGGACCA: -0.146
AGCTGTAA: -0.146

Single results of other studies
C[C@H]1C[C@@H]2[C@H]([C@@H](O)C[C@@]3(C)[C@H]2CC[C@]3(O)C(=O)CO)[C@@]2(C)C=CC(=O)C=C12  IC50 (Synaptic vesicular amine transporter (SLC18A2, Homo sapiens, UniProt Q05940); inhibitor; literature data): > 10 µM
